{"data": "Measured values collected from several papers", "note": "Each numbered part is a random draw from the data of one study; scales do not carry over between parts. Substitutions count along the parent as printed."}
{"data": "Study 1", "target": "Protein C-ets-1, full length (ETS1, Homo sapiens, UniProt P14921, residues 1-441)", "technique": "protein-binding microarray", "form": "hairpin DNA", "matrix": "in vitro", "concentration": "not given", "notes": "whole hairpin DNA, median over replicate spots", "reference": "not given", "reading": "higher = stronger binding", "constant ends, left off below": "GAGGCCA … TGGCCTCACACTC", "Residues (chain)": "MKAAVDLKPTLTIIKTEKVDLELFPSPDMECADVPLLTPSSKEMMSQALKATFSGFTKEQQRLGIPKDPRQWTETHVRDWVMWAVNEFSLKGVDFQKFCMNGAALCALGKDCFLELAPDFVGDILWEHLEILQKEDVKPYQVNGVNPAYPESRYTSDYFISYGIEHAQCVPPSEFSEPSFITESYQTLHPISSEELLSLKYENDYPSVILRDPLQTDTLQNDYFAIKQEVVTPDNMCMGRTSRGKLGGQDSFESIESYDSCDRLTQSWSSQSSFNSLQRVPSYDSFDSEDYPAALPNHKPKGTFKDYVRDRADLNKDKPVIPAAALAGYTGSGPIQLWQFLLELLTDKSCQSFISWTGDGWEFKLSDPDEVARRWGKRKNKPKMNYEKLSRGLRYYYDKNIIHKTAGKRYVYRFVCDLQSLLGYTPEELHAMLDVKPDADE"}
{"Strand": "GCCGGAGGTTGCCTCCTGGCAACCTCCGGC", "median fluorescence [a.u.]": 830}
{"Strand": "GTCGGAAGTCGCCTCCTGGCGACTTCCGAC (5mC at 17)", "median fluorescence [a.u.]": 4460}
{"Strand": "GCCGGAAGATGCCTCCTGGCATCTTCCGGC", "median fluorescence [a.u.]": 3600}
{"Strand": "CCCGGAAGTTGCCTCCTGGCAACTTCCGGG (5mC at 8)", "median fluorescence [a.u.]": 6870}
{"Strand": "GTCGGAGGTTGCCTCCTGGCAACCTCCGAC", "median fluorescence [a.u.]": 594}
{"Strand": "GCCGGCAGTTGCCTCCTGGCAACTGCCGGC", "median fluorescence [a.u.]": 603}
{"Strand": "GTCGGAAGTAGCCTCCTGGCTACTTCCGAC", "median fluorescence [a.u.]": 2900}
{"Strand": "GTCCGAAGTTGCCTCCTGGCAACTTCGGAC (5mC at 11)", "median fluorescence [a.u.]": 549}
{"data": "Study 2", "target": "tungstate, free oxyanion", "technique": "microfluidic competitive inhibition", "matrix": "in vitro, cell-free expressed", "concentration": "not given", "notes": "derived from inhibition constants, unchanged parent 2230 nM", "reading": "lower = stronger binding", "starting sequence": "PafA, mature enzyme, eGFP fusion (Elizabethkingia meningoseptica, UniProt Q9KJX5); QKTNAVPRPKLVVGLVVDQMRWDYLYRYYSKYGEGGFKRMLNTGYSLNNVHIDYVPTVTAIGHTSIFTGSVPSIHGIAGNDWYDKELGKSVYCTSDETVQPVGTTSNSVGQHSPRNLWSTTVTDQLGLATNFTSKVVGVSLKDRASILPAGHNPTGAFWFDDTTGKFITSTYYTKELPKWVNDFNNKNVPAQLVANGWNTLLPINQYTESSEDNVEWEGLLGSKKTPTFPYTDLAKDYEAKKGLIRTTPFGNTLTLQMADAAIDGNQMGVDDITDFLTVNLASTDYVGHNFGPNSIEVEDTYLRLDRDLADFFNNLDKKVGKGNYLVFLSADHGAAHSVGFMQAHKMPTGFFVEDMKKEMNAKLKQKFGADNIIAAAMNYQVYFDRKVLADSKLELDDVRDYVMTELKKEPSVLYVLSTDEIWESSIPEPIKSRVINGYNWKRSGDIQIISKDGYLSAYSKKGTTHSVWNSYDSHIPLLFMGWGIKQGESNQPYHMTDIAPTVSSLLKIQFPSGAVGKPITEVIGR"}
{"Variant": "R307G", "oxyanion analog dissociation constant": "2180 nM"}
{"Variant": "S490V", "oxyanion analog dissociation constant": "2080 nM"}
{"Variant": "F276G", "oxyanion analog dissociation constant": "1030 nM"}
{"Variant": "D473G", "oxyanion analog dissociation constant": "1040 nM"}
{"Variant": "G484V", "oxyanion analog dissociation constant": "3730 nM"}
{"data": "Study 3", "target": "CCNB1, cyclin fold, Cln2 fusion (human)", "technique": "yeast growth competition, sequencing", "matrix": "yeast", "notes": "strong parent motif", "reference": "not given", "reading": "higher = stronger binding", "starting sequence": "viral docking peptide; KGVKRKLFAEDSS; partner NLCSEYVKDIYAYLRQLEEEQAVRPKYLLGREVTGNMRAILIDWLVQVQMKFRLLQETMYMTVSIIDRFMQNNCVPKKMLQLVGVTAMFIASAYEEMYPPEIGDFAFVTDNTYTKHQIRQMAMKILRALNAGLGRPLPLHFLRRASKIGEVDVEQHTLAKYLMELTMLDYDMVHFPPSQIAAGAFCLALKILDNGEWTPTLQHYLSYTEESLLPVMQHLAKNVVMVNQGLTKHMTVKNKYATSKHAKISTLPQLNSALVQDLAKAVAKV"}
{"Variant": "KGPKRKLFAEDSS [V3P]", "normalised enrichment score": 0.89}
{"Variant": "KGVQRKLFAEDSS [K4Q]", "normalised enrichment score": 2.9}
{"Variant": "KGSKRKLFAEDSS [V3S]", "normalised enrichment score": 0.00887}
{"Variant": "KGVKRKLFAKDSS [E10K]", "normalised enrichment score": 0.364}
{"Variant": "KMVKRKLFAEDSS [G2M]", "normalised enrichment score": 1.65}
{"Variant": "KGVKPKLFAEDSS [R5P]", "normalised enrichment score": -0.0608}
{"Variant": "KQVKRKLFAEDSS [G2Q]", "normalised enrichment score": 2.46}
{"Variant": "KGVKRFLFAEDSS [K6F]", "normalised enrichment score": 0.0488}
{"Variant": "KGVKWKLFAEDSS [R5W]", "normalised enrichment score": 0.433}
{"Variant": "KGVKRKLFCEDSS [A9C]", "normalised enrichment score": 2.3}
{"Variant": "KGVKRYLFAEDSS [K6Y]", "normalised enrichment score": 0.322}
{"Variant": "KGVKRKLFAEKSS [D11K]", "normalised enrichment score": 1.05}
{"Variant": "KGVKRKLFAEMSS [D11M]", "normalised enrichment score": 0.874}
{"Variant": "KGVKRNLFAEDSS [K6N]", "normalised enrichment score": 0.812}
{"Variant": "KGVKRKLFAEDGS [S12G]", "normalised enrichment score": 1.88}
{"Variant": "KGVKRKLFTEDSS [A9T]", "normalised enrichment score": 1.82}
{"Variant": "KGVKRKGFAEDSS [L7G]", "normalised enrichment score": 0.172}
{"data": "Study 4", "target": "CREB3, bZIP domain (human)", "technique": "DHFR protein complementation", "matrix": "yeast", "notes": "single substitutions, most at no-binding floor", "reference": "wild-type JUN-FOS pair", "reading": "higher = stronger binding", "starting sequence": "JUN, bZIP domain (human); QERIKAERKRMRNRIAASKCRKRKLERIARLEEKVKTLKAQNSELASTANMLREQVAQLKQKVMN; partner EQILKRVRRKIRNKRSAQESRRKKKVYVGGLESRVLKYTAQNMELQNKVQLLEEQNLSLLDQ"}
{"Variant": "V35H", "binding fitness": "-1.43 natural log"}
{"Variant": "E44G", "binding fitness": "-1.48 natural log"}
{"Variant": "T37D", "binding fitness": "-1.45 natural log"}
{"Variant": "Q58R", "binding fitness": "-1.26 natural log"}
{"Variant": "A49P", "binding fitness": "-1.48 natural log"}
{"Variant": "E32L", "binding fitness": "-1.47 natural log"}
{"Variant": "K36I", "binding fitness": "-1.33 natural log"}
{"Variant": "R53M", "binding fitness": "-1.43 natural log"}
